Assay results collected from several papers.
Every numbered part comes from another study and shows a few of its results, in no order.

Set 1
Target: Ras GTPase-activating protein-binding protein 1, C-terminal RGG region (G3BP1, Homo sapiens, UniProt Q13283)
UniProt Q13283, sequence (whole entry, looked up): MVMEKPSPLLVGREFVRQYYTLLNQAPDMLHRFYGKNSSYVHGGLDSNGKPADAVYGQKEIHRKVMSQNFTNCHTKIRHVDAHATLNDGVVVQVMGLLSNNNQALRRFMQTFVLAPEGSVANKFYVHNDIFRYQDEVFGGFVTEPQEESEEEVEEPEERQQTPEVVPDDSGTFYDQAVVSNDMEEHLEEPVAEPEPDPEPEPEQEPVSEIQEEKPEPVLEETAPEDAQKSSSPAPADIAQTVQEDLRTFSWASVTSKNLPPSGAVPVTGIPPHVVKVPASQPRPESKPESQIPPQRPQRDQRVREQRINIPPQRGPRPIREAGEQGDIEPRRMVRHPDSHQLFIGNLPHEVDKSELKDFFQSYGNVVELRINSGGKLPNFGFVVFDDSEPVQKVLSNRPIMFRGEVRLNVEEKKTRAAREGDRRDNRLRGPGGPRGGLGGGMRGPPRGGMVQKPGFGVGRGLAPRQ
Method: RNA Bind-n-Seq
Molecule type: RNA
Matrix: in vitro
Tested at: 1 µM
Setting: whole 134-nt RNA, ends assumed
With: 150 mM KCl
Baseline: input library
Reading: higher = stronger binding
Strand | log2 enrichment
GGGAGUUCUACAGUCCGACGAUCACCAUGCAAGUGGGCAUCUUUGGGAAGUGGGGCAAGGGGGGGAUAGGGAGGGGGGUAACACUUUGGGAACAGGUGGUCCCAGGUCGUUUCUGGAAUUCUCGGGUGUCAAGG | -0.904
GGGAGUUCUACAGUCCGACGAUCUCCUGUGCUACACAUCGUAUGUACCGAAUCGGGGUUUUUGGGUUUUUGGGGUUUUUGGGGAAAGUAUUAUGUUACGCCGUUCGGAUCUGCUGGAAUUCUCGGGUGUCAAGG | 0.292
GGGAGUUCUACAGUCCGACGAUCACCAUGCAGGUGGGCAUCUUUGGGAAGUGGAGCAAGGGGGGGAUAGGGAGGGGGGUAACACUUUGGGAACAGGUGGUCCCAGGUCGUUUCUGGAAUUCUCGGGUGUCAAGG | -1.45

Set 2
Target: Histone acetyltransferase KAT6A, both winged helices, GST fusion (KAT6A, Homo sapiens, UniProt Q92794, residues 1-181)
Method: protein binding microarray
Molecule type: double-stranded DNA, one strand shown
Matrix: in vitro
Tested at: not given
Setting: 8-mer, flanks averaged, mean of 2 arrays, mostly near background
Baseline: not given
Reading: higher = stronger binding
Residues (chain): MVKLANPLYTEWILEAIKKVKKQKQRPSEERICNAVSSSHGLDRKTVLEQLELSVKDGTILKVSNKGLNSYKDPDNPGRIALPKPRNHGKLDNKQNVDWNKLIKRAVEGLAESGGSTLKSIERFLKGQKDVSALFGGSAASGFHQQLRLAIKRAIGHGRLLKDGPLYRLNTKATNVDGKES
Strand | E-score
GTATCTCA | -0.0375
CTACTGGA | -0.272
CGTAACTA | 0.0181
GGTAACTA | 0.00091

Set 3
Molecule: PhoQ, residues 284 288 289 292 302 303 SLGVVW
Method: Sort-seq
Measured: YFP reporter
Matrix: E. coli
Setting: PhoQ-PhoP variant library
With: 10 µM Mg2+
Baseline: high Mg2+ state
Reading: higher = stronger signaling
target | fold induction
PhoP, residues 12 14 15 18 19 TQALL (Escherichia coli, UniProt P23836) | 7.66
PhoP, residues 12 14 15 18 19 QYFSL (Escherichia coli, UniProt P23836) | 5.08
PhoP, residues 12 14 15 18 19 NYFRM (Escherichia coli, UniProt P23836) | 16.8

Set 4
Target: Interferon regulatory factor 7, full length, phosphomimetic (IRF7, Homo sapiens, UniProt Q92985, residues 1-503, S471D/S472D/S475D/S476D/S477D/S483D/S484D/S487D)
UniProt Q92985, sequence (whole entry, unmodified, looked up): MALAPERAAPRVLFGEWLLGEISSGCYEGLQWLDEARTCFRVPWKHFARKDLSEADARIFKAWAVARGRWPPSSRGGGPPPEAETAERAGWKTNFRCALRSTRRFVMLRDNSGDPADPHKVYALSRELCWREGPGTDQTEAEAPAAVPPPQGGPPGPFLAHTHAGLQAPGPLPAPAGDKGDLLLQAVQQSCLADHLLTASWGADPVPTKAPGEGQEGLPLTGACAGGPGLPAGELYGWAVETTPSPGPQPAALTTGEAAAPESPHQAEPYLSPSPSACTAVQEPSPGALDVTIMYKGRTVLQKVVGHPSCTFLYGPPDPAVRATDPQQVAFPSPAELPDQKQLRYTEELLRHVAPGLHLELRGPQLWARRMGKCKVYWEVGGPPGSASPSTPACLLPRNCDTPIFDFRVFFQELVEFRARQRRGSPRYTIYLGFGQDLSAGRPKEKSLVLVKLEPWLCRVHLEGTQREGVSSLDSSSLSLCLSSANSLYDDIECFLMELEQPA
Method: protein-binding microarray
Molecule type: double-stranded DNA, one strand shown
Matrix: in vitro
Tested at: 2200 nM top
Setting: 60-bp whole probe
With: salmon DNA 0.4 mg/ml
Baseline: random background probes
Reading: higher = stronger binding
Constant ends, left off below: GCCTAGCAC … GTCTTGATTCGCTTGACGCTGCTG
Strand | fitted relative affinity [z-score]
GACGATTTTAGTTCCGAGACGTGCTAG | 0.956
TTAGGTATCGATATCGGTTAGTGCTAG | 0.801
TTAGGTATCGACTATCAGTTAGTGCTA | -0.13
TGCTGTGTACATCTCTCTTAGTGCTAG | 0.912
TCATTTTTTTTTCCCTGACTGTGCTAG | 2.25
TCAGATATTAAACTGATACTGTGCTAG | -0.245
TTACAACTGGGGTATCGATTAGTGCTA | 0.438
AACGGTTTCCTACTGCTGACGTGCTAG | 2.22
GACGGACTGCTTCTCCCGACGTGCTAG | 0.539
TCACTTCTGGTGCTCATACTGTGCTAG | 1.53

For quick reference, copied from above (set 1):
Strand | log2 enrichment
GGGAGUUCUACAGUCCGACGAUCACCAUGCAAGUGGGCAUCUUUGGGAAGUGGGGCAAGGGGGGGAUAGGGAGGGGGGUAACACUUUGGGAACAGGUGGUCCCAGGUCGUUUCUGGAAUUCUCGGGUGUCAAGG | -0.904
GGGAGUUCUACAGUCCGACGAUCACCAUGCAGGUGGGCAUCUUUGGGAAGUGGAGCAAGGGGGGGAUAGGGAGGGGGGUAACACUUUGGGAACAGGUGGUCCCAGGUCGUUUCUGGAAUUCUCGGGUGUCAAGG | -1.45
